Experimental data of several laboratories.
Parts stem from different laboratories: compare values within a part only.

Series 1
Target: Histone acetyltransferase KAT6A, winged helix 1, GST fusion (KAT6A, Homo sapiens, UniProt Q92794, residues 1-85)
Method: protein binding microarray
Form: double-stranded DNA, one strand shown
Matrix: in vitro
Tested at: not given
Notes: 8-mer, flanks averaged, mean of 2 arrays, mostly near background
Baseline: not given
Reading: higher = stronger binding
Residues (chain): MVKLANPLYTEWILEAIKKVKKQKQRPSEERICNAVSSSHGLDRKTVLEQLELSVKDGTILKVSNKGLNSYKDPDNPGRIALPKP
For `AATTTGGA`, the E-score was -0.329.
With `CAGCTCAC` the E-score was -0.139.
With `AGCGATAA` the E-score was 0.112.
The E-score of `AGTACCTC` is reported as -0.113.
For `CATAACTC`, the E-score was -0.0175.
`CCAAACGA` gave an E-score of -0.04.
`AACGAGCC` has an E-score of -0.0419.
For `GAGTCGTA`, the E-score was -0.124.

Series 2
Target: Replicase polyprotein 1ab, nsp13 helicase (rep, Severe acute respiratory syndrome coronavirus 2, UniProt P0DTD1)
Mode: inhibitor
Tested at: 20 µM
COc1ccc2c(c1)N(C[C@H](C)CN(C)C)c1ccccc1S2 has an inhibition of 8.25%.
CC[C@@H](C(=O)[C@@H](C)[C@@H](O)[C@H](C)[C@@H]1O[C@@H]([C@@H](CC)C(=O)O)CC[C@@H]1C)[C@H]1O[C@]2(C=C[C@@H](O)[C@]3(CC[C@@](C)([C@H]4CC[C@](O)(CC)[C@H](C)O4)O3)O2)[C@H](C)C[C@@H]1C gave an inhibition of 3.78%.
COc1ccc2c(c1)C(C(=O)N(Cc1ccc(N(C)C)cc1)c1ccc(C(C)C)cc1)CCC2 (centres unmarked) has an inhibition of -0.41%.
CCCN(CCC)C1CCc2cccc(O)c2C1 (centres unmarked) gave an inhibition of 7.12%.
For OB1OCc2cc(F)ccc21, the inhibition was -8.28%.
COc1cc2c(cc1OC)[C@H]1CC(=O)[C@H](CC(C)C)CN1CC2 has an inhibition of -4.06%.
With CNC(=C[N+](=O)[O-])NCCSCc1csc(CN(C)C)n1 the inhibition was 4.66%.
COCCNC(=O)Cn1cnc([N+](=O)[O-])n1 has an inhibition of 2.72%.
With Cn1nnc(-c2ccc(-c3ccc(N4C[C@H](CO)OC4=O)cc3F)cn2)n1 the inhibition was -4.1%.
C[C@]12C=CC(=O)C=C1CC[C@@H]1[C@@H]2C(=O)C[C@@]2(C)[C@H]1CC[C@]2(O)C(=O)CO gave an inhibition of 14.1%.
Cn1nc(-c2cccc(F)c2)n(C)c1=S has an inhibition of -15.8%.
With C[N+]1(C)CCCC(OC(=O)C(O)(c2ccccc2)c2ccccc2)C1 (centres unmarked) the inhibition was -3.05%.
Nc1nc(NC2CC2)cc(-c2cccc(Cl)c2Cl)n1 gave an inhibition of -0.68%.
The inhibition of CC(CNC1CCCCC1)OC(=O)c1ccccc1 (centres unmarked) is reported as 4.88%.
With CC(C)(C)C(=O)CN1C(=O)[C@H](NC(=O)Nc2cccc(C(=O)O)c2)CN(C2CCCCC2)c2ccccc21 the inhibition was 10.2%.
The inhibition of Cc1cc(O)c(C(C)C)cc1Cl is reported as 1.04%.
For CC(Cc1ccc(O)cc1)NCC(O)c1cc(O)cc(O)c1 (centres unmarked), the inhibition was 5.2%.
Nc1nnc(Sc2ncc([N+](=O)[O-])s2)s1 gave an inhibition of 98.8%.
CC(C)C[C@@H](N)C(=O)N[C@H]1C(=O)N[C@@H](CC(N)=O)C(=O)N[C@H]2C(=O)N[C@H]3C(=O)N[C@H](C(=O)N[C@H](C(=O)O)c4cc(O)cc(O)c4-c4cc3ccc4O)[C@H](O)c3ccc(c(Cl)c3)Oc3cc2cc(c3O[C@@H]2O[C@H](CO)[C@@H](O)[C@H](O)[C@H]2O[C@H]2C[C@](C)(N)[C@H](O)[C@H](C)O2)Oc2ccc(cc2Cl)[C@H]1O gave an inhibition of 9.86%.
CC(C)Oc1ccc(-c2nc(-c3cccc4c3CC[C@@H]4NCCO)no2)cc1C#N gave an inhibition of -0.91%.
Nc1ccc(O)c(C(=O)O)c1 has an inhibition of -3.14%.
CN1[C@@H]2CC[C@H]1C[C@@H](OC(=O)[C@H](CO)c1ccccc1)C2 gave an inhibition of -0.15%.
With CCOc1ccc(C[C@H]2NC(=O)CCSSC[C@@H](C(=O)N3CCC[C@H]3C(=O)N[C@@H](CCCN)C(=O)NCC(N)=O)NC(=O)[C@H](CC(N)=O)NC(=O)[C@H]([C@@H](C)O)NC(=O)[C@H]([C@@H](C)CC)NC2=O)cc1 the inhibition was 3.56%.
CCN1CCN(Cc2ccc(-c3cc4c(N[C@H](C)c5ccccc5)ncnc4[nH]3)cc2)CC1 has an inhibition of 15.5%.
For CN[C@@H](C)C(=O)N[C@H](C(=O)N1CCC[C@H]1c1nc(C(=O)c2ccc(F)cc2)cs1)C1CCCCC1, the inhibition was 1.84%.

Series 3
Target: Replicase polyprotein 1ab, main protease (rep, Severe acute respiratory syndrome coronavirus 2, UniProt P0DTD1)
Observed: enzyme activity
Mode: inhibitor
Notes: no DTT
Nc1nc2c(ncn2[C@@H]2O[C@H](CO)[C@@H](O)[C@H]2O)c(=S)[nH]1 gave an IC50 of 6.3 µM.
O=C(/C=C/c1ccc(O)c(O)c1)O[C@H](Cc1ccc(O)c(O)c1)C(=O)O gave an IC50 of 10 µM.
O=C1C2CC=CCC2C(=O)N1SC(Cl)(Cl)Cl (centres unmarked) gave an IC50 of 0.7 µM.
The IC50 of CO[C@@H]1[C@H](OC(=O)NC(=O)CCl)CC[C@]2(CO2)[C@H]1[C@@]1(C)O[C@@H]1CC=C(C)C is reported as over 20 µM.
With O=C(C=Cc1ccc(O)c2c1C(C(=O)OC(Cc1ccc(O)c(O)c1)C(=O)O)C(c1ccc(O)c(O)c1)O2)OC(Cc1ccc(O)c(O)c1)C(=O)O (centres unmarked) the IC50 was 3.4 µM.
The IC50 of C[C@@H]1O[C@@H](Oc2c(-c3cc(O)c(O)c(O)c3)oc3cc(O)cc(O)c3c2=O)[C@@H](O)[C@H](O)[C@H]1O is reported as 3.7 µM.

Series 4
Cell line: HEK-293T
Observed: pseudovirus infection
Method: FDA-approved drug library screen
Organism: VSV pseudotyped with SARS-CoV-2 spike
Tested at: 10 µM
Time: 16 h
Baseline: vehicle-treated
For CC(=O)Oc1ccccc1C(=O)O, the GFP-positive cells was 87.2%.
For Cc1cc(C(C)(C)C)c(O)c(C)c1CC1=NCCN1, the GFP-positive cells was 92.3%.
For NC[C@H]1O[C@H](O[C@H]2[C@H](O)[C@@H](O[C@H]3O[C@H](CO)[C@@H](O)[C@H](N)[C@H]3O)[C@H](N)C[C@@H]2N)[C@H](N)C[C@@H]1O, the GFP-positive cells was 86%.
With O=C(OOC(=O)c1ccccc1)c1ccccc1 the GFP-positive cells was 86.9%.
O=c1[nH]c(=O)n([C@H]2C[C@H](O)[C@@H](CO)O2)cc1C(F)(F)F gave a GFP-positive cells of 76.9%.
The GFP-positive cells of COc1cc(C)c(/C=C/C(C)=C/C=C/C(C)=C/C(=O)O)c(C)c1C is reported as 78.4%.

Series 5
Target: Sal-like protein 4, full length isoform B (SALL4, Homo sapiens, UniProt Q9UJQ4-2, residues 1-616)
Method: universal PBM
Form: double-stranded DNA, one strand shown
Matrix: in vitro
Tested at: not given
Notes: 8-mer, flanks averaged, mean of replicates
Reading: higher = stronger binding
The E-score of `TCACATCA` is reported as 0.0403.
With `ATGTTTCA` the E-score was 0.283.
`CAAAGTAG` gave an E-score of 0.108.
The E-score of `GTCGATCA` is reported as 0.0371.
`AGCAGTCC` has an E-score of -0.281.
The E-score of `CACTGACG` is reported as -0.226.
`AAAGTTCC` has an E-score of -0.0922.
`AACACTTC` has an E-score of 0.0133.

Some of these lines once more (series 2):
Cn1nc(-c2cccc(F)c2)n(C)c1=S has an inhibition of -15.8%.
With C[N+]1(C)CCCC(OC(=O)C(O)(c2ccccc2)c2ccccc2)C1 (centres unmarked) the inhibition was -3.05%.
Nc1nc(NC2CC2)cc(-c2cccc(Cl)c2Cl)n1 gave an inhibition of -0.68%.
The inhibition of CC(CNC1CCCCC1)OC(=O)c1ccccc1 (centres unmarked) is reported as 4.88%.
With CC(C)(C)C(=O)CN1C(=O)[C@H](NC(=O)Nc2cccc(C(=O)O)c2)CN(C2CCCCC2)c2ccccc21 the inhibition was 10.2%.
The inhibition of Cc1cc(O)c(C(C)C)cc1Cl is reported as 1.04%.
For CC(Cc1ccc(O)cc1)NCC(O)c1cc(O)cc(O)c1 (centres unmarked), the inhibition was 5.2%.
Nc1nnc(Sc2ncc([N+](=O)[O-])s2)s1 gave an inhibition of 98.8%.
